{"data": "Experimental data of several laboratories", "note": "Each numbered part is a random draw from the data of one study; scales do not carry over between parts. Several values in a cell are separate wells, animals, samples, runs or records.", "chain of UniProt Q9H2K8 (whole entry, looked up)": "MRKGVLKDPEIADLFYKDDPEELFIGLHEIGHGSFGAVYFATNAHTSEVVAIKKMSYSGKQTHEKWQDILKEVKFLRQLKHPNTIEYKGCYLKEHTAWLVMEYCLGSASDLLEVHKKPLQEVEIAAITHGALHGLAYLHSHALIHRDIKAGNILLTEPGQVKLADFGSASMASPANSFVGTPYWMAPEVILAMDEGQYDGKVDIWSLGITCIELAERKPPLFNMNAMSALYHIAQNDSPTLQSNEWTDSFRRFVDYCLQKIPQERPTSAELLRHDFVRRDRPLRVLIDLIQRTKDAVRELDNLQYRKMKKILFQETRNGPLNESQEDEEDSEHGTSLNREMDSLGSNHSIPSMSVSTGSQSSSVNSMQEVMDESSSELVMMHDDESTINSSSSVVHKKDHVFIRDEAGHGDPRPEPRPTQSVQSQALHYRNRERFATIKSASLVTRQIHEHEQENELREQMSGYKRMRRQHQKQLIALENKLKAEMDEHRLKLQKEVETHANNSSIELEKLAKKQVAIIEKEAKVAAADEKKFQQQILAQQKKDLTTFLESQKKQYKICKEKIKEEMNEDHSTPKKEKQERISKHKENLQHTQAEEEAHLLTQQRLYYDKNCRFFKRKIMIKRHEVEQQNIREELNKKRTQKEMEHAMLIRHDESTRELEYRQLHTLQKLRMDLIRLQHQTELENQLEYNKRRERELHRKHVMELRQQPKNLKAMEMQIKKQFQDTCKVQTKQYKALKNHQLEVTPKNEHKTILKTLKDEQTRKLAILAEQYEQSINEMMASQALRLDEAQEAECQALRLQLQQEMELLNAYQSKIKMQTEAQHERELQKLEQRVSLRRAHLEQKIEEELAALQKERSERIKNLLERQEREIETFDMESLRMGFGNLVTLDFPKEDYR", "chain of UniProt P35968 (whole entry, looked up)": "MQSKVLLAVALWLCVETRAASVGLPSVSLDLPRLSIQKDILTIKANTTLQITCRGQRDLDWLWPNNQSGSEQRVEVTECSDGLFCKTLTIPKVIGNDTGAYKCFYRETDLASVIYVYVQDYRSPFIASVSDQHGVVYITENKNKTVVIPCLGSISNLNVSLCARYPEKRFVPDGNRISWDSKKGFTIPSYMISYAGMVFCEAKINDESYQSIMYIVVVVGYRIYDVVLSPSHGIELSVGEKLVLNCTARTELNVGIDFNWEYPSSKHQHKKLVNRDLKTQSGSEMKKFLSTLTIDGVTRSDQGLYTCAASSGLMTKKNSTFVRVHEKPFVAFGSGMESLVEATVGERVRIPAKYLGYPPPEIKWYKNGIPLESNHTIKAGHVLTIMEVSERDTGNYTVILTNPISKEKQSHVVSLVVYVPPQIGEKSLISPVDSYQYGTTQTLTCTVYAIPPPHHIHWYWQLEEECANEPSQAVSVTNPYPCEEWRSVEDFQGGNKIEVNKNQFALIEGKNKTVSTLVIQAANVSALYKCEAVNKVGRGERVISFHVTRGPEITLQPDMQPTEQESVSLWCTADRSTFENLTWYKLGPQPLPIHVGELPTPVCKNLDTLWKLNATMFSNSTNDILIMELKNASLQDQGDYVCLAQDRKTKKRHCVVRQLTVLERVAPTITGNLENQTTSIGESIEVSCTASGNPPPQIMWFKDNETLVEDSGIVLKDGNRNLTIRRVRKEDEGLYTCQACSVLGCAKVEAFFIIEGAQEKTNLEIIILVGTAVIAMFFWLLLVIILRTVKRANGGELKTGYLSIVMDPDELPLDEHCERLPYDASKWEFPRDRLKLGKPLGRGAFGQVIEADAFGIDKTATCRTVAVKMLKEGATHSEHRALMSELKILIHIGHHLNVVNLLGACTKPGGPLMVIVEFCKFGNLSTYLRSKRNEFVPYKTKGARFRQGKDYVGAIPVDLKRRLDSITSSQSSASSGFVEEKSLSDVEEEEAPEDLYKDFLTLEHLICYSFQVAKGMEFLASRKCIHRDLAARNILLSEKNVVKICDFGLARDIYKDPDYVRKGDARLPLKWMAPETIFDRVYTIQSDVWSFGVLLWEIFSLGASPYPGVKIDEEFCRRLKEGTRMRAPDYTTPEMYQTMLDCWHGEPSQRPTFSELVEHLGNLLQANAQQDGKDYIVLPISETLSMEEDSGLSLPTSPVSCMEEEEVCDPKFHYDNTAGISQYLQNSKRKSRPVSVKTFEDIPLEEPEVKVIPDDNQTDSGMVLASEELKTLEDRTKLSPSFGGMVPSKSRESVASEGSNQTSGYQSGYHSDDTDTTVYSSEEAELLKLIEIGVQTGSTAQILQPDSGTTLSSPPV", "chain of UniProt Q9UPZ9 (whole entry, looked up)": "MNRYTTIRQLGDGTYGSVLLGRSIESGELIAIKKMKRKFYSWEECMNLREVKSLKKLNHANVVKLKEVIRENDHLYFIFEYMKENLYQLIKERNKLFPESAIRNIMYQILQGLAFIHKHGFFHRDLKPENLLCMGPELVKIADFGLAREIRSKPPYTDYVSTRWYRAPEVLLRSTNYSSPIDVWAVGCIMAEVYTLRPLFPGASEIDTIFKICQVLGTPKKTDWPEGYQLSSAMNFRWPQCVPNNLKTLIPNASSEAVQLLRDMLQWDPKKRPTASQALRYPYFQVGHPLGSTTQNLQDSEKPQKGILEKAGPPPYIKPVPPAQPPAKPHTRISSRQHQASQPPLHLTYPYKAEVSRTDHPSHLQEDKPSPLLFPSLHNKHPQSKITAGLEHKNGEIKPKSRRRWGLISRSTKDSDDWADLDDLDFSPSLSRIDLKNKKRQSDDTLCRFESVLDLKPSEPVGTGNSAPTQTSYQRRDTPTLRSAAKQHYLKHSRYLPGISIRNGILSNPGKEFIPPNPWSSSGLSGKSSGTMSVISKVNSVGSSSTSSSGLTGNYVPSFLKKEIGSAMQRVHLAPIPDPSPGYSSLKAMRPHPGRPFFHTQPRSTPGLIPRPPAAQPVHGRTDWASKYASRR", "chain of UniProt Q05655 (whole entry, looked up)": "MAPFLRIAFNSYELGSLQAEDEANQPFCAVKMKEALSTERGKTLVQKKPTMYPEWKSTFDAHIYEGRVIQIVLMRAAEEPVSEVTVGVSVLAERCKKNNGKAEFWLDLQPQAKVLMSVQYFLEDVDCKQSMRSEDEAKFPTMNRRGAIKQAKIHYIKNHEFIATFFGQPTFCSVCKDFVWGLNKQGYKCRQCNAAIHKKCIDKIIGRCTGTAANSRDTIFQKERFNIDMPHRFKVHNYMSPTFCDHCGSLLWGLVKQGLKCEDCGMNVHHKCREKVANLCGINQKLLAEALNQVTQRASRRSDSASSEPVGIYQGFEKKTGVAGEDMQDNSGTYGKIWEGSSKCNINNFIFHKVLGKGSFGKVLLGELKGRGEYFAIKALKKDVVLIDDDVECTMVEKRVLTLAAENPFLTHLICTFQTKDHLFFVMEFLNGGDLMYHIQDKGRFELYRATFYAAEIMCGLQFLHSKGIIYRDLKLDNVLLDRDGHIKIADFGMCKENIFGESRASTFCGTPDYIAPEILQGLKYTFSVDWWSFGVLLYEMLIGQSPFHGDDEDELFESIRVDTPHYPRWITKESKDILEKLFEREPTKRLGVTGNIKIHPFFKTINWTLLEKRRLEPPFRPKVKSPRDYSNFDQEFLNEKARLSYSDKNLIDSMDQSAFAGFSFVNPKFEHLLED", "chain of UniProt Q92772 (whole entry, looked up)": "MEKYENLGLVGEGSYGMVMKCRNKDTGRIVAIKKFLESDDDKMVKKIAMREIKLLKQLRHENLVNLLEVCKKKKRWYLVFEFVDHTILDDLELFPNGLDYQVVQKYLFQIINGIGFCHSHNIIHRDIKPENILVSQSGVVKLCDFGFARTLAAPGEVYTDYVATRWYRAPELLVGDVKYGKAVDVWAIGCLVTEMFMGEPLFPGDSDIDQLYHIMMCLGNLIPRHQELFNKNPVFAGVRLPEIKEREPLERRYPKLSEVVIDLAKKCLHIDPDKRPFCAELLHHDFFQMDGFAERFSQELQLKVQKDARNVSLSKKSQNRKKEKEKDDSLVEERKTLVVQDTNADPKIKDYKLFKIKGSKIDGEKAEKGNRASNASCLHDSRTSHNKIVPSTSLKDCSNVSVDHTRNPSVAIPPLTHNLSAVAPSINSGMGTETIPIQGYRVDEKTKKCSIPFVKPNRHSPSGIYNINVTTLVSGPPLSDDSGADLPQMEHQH", "chain of UniProt Q9HBY8 (whole entry, looked up)": "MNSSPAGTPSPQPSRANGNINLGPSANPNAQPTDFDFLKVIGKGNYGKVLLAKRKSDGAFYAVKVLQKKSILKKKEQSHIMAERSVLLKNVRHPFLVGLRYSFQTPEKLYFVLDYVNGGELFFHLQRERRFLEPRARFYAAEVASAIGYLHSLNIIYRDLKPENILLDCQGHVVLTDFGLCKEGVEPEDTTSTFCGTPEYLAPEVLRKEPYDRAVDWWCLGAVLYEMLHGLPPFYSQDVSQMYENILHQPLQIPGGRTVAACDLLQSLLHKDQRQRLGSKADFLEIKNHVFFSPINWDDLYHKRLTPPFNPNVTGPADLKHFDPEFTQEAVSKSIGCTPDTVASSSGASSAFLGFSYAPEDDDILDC"}
{"data": "Set 1", "Compound": "C[C@H](NC(=O)c1cnc2n1[C@](C)(Cc1ccc(C#N)cc1)C(=O)N2c1cc(Cl)c(F)c(Cl)c1)C(=O)NC1(c2ccccn2)CC1", "read-out": "cell-free assay", "technique": "competition with immobilised ligand", "tested at": "1 µM"}
{"target": "FER (Homo sapiens, UniProt P16591)", "remaining binding [%]": 100}
{"target": "RET (Homo sapiens, UniProt P07949, M918T)", "remaining binding [%]": 100}
{"target": "DSTYK (Homo sapiens, UniProt Q6XUX3)", "remaining binding [%]": 87}
{"target": "ABL2 (Homo sapiens, UniProt P42684)", "remaining binding [%]": 83}
{"target": "DCLK2 (Homo sapiens, UniProt Q8N568)", "remaining binding [%]": 100}
{"target": "PIK3C3 (Homo sapiens, UniProt Q8NEB9)", "remaining binding [%]": 100}
{"target": "Tyrosine-protein kinase ABL1, phosphorylated (ABL1, Homo sapiens, UniProt P00519, Y253F)", "remaining binding [%]": 100}
{"target": "Cyclin-dependent kinase 4, with cyclin D3 (CDK4, Homo sapiens, UniProt P11802)", "remaining binding [%]": 100}
{"target": "LTK (Homo sapiens, UniProt P29376)", "remaining binding [%]": 100}
{"target": "GAK (Homo sapiens, UniProt O14976)", "remaining binding [%]": 92}
{"target": "EIF2AK2 (Homo sapiens, UniProt P19525)", "remaining binding [%]": 34}
{"target": "ACVR2A (Homo sapiens, UniProt P27037)", "remaining binding [%]": 92}
{"target": "CAMKK2 (Homo sapiens, UniProt Q96RR4)", "remaining binding [%]": 100}
{"target": "PIP4K2B (Homo sapiens, UniProt P78356)", "remaining binding [%]": 100}
{"target": "Macrophage colony-stimulating factor 1 receptor, autoinhibited (CSF1R, Homo sapiens, UniProt P07333)", "remaining binding [%]": 100}
{"target": "KDR (Homo sapiens, UniProt P35968)", "remaining binding [%]": 99}
{"target": "CILK1 (Homo sapiens, UniProt Q9UPZ9)", "remaining binding [%]": 100}
{"target": "FLT3 (Homo sapiens, UniProt P36888, D835V)", "remaining binding [%]": 100}
{"target": "STK38L (Homo sapiens, UniProt Q9Y2H1)", "remaining binding [%]": 49}
{"target": "SGK2 (Homo sapiens, UniProt Q9HBY8)", "remaining binding [%]": 94}
{"data": "Set 2", "cell line": "mouse MPNST tumor cells", "technique": "high-content immunofluorescence imaging", "measured": "nuclear SOX9", "tested at": "10 µM", "time": "12 h", "notes": "mean of 2 replicates", "reference": "DMSO control", "reading": "higher = more nuclear SOX9"}
{"Compound": "Cc1ccc2cccc(NC(=O)c3ccc(OC(C)C)cc3)c2n1", "nuclear SOX9 intensity": "114 % of DMSO"}
{"Compound": "CC1CCN(CCCC(=O)c2ccc(F)cc2)CC1", "nuclear SOX9 intensity": "106 % of DMSO"}
{"Compound": "C[C@H](NC(=O)CCc1ccc(F)c(F)c1)c1cncc(N2CCN(c3ccccn3)CC2)n1", "nuclear SOX9 intensity": "99.8 % of DMSO"}
{"Compound": "Oc1c(I)cc(Cl)c2cccnc12", "nuclear SOX9 intensity": "92.4 % of DMSO"}
{"Compound": "CCc1cc(C(C)=O)c(O)cc1OCCCCCC(C)(C)c1nn[nH]n1", "nuclear SOX9 intensity": "97.7 % of DMSO"}
{"Compound": "NS(=O)(=O)c1cc(C2(O)NC(=O)c3ccccc32)ccc1Cl (stereo not drawn)", "nuclear SOX9 intensity": "97.1 % of DMSO"}
{"Compound": "O=C1CC[C@@H](C(=O)N2CSC[C@H]2C(=O)O)N1", "nuclear SOX9 intensity": "93 % of DMSO"}
{"Compound": "COCCc1ccc(OCC(O)CNC(C)C)cc1 (racemic)", "nuclear SOX9 intensity": "102 % of DMSO"}
{"Compound": "OCCOCCN1CCN(C2=Nc3ccccc3Sc3ccccc32)CC1", "nuclear SOX9 intensity": "116 % of DMSO and 117 % of DMSO"}
{"Compound": "CC(C)CNc1ccnc(NCc2csc(-c3ccccc3)n2)n1", "nuclear SOX9 intensity": "132 % of DMSO"}
{"Compound": "COC(=O)C1=C(C)NC(C)=C([N+](=O)[O-])[C@H]1c1ccccc1C(F)(F)F", "nuclear SOX9 intensity": "106 % of DMSO"}
{"Compound": "Cc1c(N)c(=O)n(-c2ccccc2)n1C", "nuclear SOX9 intensity": "103 % of DMSO"}
{"Compound": "Cc1cc(C)c(S(=O)(=O)n2cc(C)cc2C)c(C)c1", "nuclear SOX9 intensity": "102 % of DMSO"}
{"Compound": "CC(C)(O)c1ccn2c(-c3ccc(F)c(-c4ccc(F)cc4C#N)c3)cnc2c1F", "nuclear SOX9 intensity": "150 % of DMSO"}
{"Compound": "CCN(CC)Cc1ccc2cc(COC(=O)Nc3ccc(C(=O)NO)cc3)ccc2c1", "nuclear SOX9 intensity": "207 % of DMSO"}
{"Compound": "CNCCN1CCC(c2cc(CN(C)C(=O)c3cccc(Oc4ccccc4)c3)ccn2)CC1", "nuclear SOX9 intensity": "178 % of DMSO and 193 % of DMSO"}
{"Compound": "N=C(N)NC(=O)c1nc(Cl)c(N)nc1N", "nuclear SOX9 intensity": "95.3 % of DMSO and 110 % of DMSO"}
{"data": "Set 3", "target": "Synaptic vesicular amine transporter (SLC18A2, Homo sapiens, UniProt Q05940)", "mode": "inhibitor", "notes": "literature data", "chain of UniProt Q05940 (whole entry, looked up)": "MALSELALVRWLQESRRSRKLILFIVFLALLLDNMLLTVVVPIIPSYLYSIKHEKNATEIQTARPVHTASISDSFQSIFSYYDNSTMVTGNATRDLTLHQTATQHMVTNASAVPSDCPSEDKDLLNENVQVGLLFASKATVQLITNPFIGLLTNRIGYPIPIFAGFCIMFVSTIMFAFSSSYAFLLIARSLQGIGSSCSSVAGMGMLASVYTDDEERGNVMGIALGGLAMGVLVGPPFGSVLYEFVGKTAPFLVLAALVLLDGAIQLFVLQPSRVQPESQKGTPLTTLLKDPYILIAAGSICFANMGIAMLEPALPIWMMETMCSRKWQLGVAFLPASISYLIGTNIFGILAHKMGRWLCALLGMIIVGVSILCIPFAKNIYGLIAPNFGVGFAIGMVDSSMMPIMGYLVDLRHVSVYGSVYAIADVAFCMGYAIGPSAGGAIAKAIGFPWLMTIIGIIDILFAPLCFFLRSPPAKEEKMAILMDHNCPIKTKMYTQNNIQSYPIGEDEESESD"}
{"SMILES": "CCN(CCO)CCCC(C)Nc1ccnc2cc(Cl)ccc12 (stereo not drawn)", "IC50": "2970 nM"}
{"SMILES": "OCCN1CCN(CCCN2c3ccccc3Sc3ccc(Cl)cc32)CC1", "IC50": "1880 nM"}
{"SMILES": "CCCN(CCC)CCc1cccc2c1CC(=O)N2", "IC50": "> 10000 nM"}
{"SMILES": "Cc1ccnc2c1NC(=O)c1cccnc1N2C1CC1", "IC50": "> 10000 nM"}
{"SMILES": "O=C(c1ccc(OCCN2CCCCC2)cc1)c1c(-c2ccc(O)cc2)sc2cc(O)ccc12", "IC50": "127 nM"}
{"SMILES": "CN1CCN(CCCN2c3ccccc3Sc3ccc(Cl)cc32)CC1", "IC50": "3720 nM"}
{"SMILES": "Oc1ccc(C(O)CNCCCCCCNCC(O)c2ccc(O)c(O)c2)cc1O (stereo not drawn)", "IC50": "468 nM"}
{"SMILES": "CC(=O)O[C@H]1C(=O)[C@@]2(C)[C@H]([C@H](OC(=O)c3ccccc3)[C@]3(O)C[C@H](OC(=O)[C@H](O)[C@@H](NC(=O)c4ccccc4)c4ccccc4)C(C)=C1C3(C)C)[C@]1(OC(C)=O)CO[C@@H]1C[C@@H]2O", "IC50": "> 10000 nM"}
{"SMILES": "C=CC(=O)Nc1cc(Nc2nccc(-c3cn(C)c4ccccc34)n2)c(OC)cc1N(C)CCN(C)C", "IC50": "1050 nM"}
{"SMILES": "CN(C)CCCN1c2ccccc2Sc2ccccc21", "IC50": "7170 nM"}
{"SMILES": "CN(c1nccc(=O)[nH]1)C1CCN(c2nc3ccccc3n2Cc2ccc(F)cc2)CC1", "IC50": "> 10000 nM"}
{"SMILES": "CC(CCc1ccc(O)cc1)NCC(O)c1ccc(O)cc1 (stereo not drawn)", "IC50": "247 nM"}
{"SMILES": "CCN(CC)CC(=O)Nc1c(C)cccc1C", "IC50": "> 10000 nM"}
{"SMILES": "Cc1c(O)cccc1C(=O)N[C@@H](CSc1ccccc1)[C@H](O)CN1C[C@H]2CCCC[C@H]2C[C@H]1C(=O)NC(C)(C)C", "IC50": "9900 nM"}
{"SMILES": "O=C(O[C@H]1CN2CCC1CC2)N1CCc2ccccc2[C@@H]1c1ccccc1", "IC50": "5700 nM"}
{"SMILES": "CCc1nn(CCCN2CCN(c3cccc(Cl)c3)CC2)c(=O)n1CCOc1ccccc1", "IC50": "667 nM"}
{"data": "Set 4", "SMILES": "Cc1ccc(NC(=O)c2ccnc(C(F)(F)F)c2)cc1-c1cc(OCCO)nc(N2CCOCC2)c1", "tested at": "1 µM"}
{"target": "DAPK2 (Homo sapiens, UniProt Q9UIK4)", "assay": "competitive binding panel", "how to read": "reference: vehicle", "remaining binding [%]": 100}
{"target": "TAOK3 (Homo sapiens, UniProt Q9H2K8)", "assay": "competitive binding panel", "how to read": "reference: vehicle", "remaining binding [%]": 89}
{"target": "MAP3K9 (Homo sapiens, UniProt P80192)", "assay": "competitive binding panel, measured: MLK1", "how to read": "reference: vehicle", "remaining binding [%]": 100}
{"target": "CDKL2 (Homo sapiens, UniProt Q92772)", "assay": "competitive binding panel", "how to read": "reference: vehicle", "remaining binding [%]": 96}
{"target": "PRKD1 (Homo sapiens, UniProt Q15139)", "assay": "competitive binding panel", "how to read": "reference: vehicle", "remaining binding [%]": 100}
{"target": "PRKCD (Homo sapiens, UniProt Q05655)", "assay": "competitive binding panel", "how to read": "reference: vehicle", "remaining binding [%]": 100}
{"target": "STK10 (Homo sapiens, UniProt O94804)", "assay": "competitive binding", "setting": "LOK", "remaining binding [%]": 21}
